Measured values from different studies.
Each line is one published result; not all experiments were run side by side. ± marks the error that the study gave.

Compound = COc1cc(O)ccc1CCC(c1ccc(O)cc1)c1cc2c(c(C)c1O)OC(c1ccc(O)cc1)CC2 (mixture of isomers); system = human blood; conditions = 30 µM, with: A23187; quantity = 5-HEPE level; result = 6 ± 4 pg/mL
Compound = CC(C)c1ccc(N(C)c2ccc3c(c2)OCC[C@H]3CNc2cnccc2C(=O)O)cc1; tested on = NCI-H2286; test = cell growth or viability, ATP luminescence; conditions = 7 days; quantity = IC50; result = 3.51 nM
Compound = CCN(CC)CC(=O)Nc1cccc(-n2cc(-c3ccc4ccc(-c5cn(-c6cccc(NC(=O)CN(CC)CC)c6)nn5)cc4c3)nn2)c1; tested on = RCC4; test = PCR angiogenesis array, measured: IL6; conditions = 5 x IC50, 2 h, normoxia; scale = relative to: untreated; quantity = fold regulation; result = 1.07
Compound = O=C(NCc1ccc(OC(F)(F)F)cc1)[C@H]1CCCN(c2ncnc3[nH]c(-c4ccc(N5CCOCC5)cc4)cc23)C1; tested on = NCI-H2228; test = cell growth or viability, MTT; conditions = 1 µg/mL, 72 h; quantity = inhibition; result = 71.4%
Compound = CN1CCCNC(=O)c2cccc(c2)C(=O)NCCCN(C)CCCNc2cccc3c2C(=O)c2cccc(c2C3=O)NCCC1; tested on = SAS; test = RNA-Seq, measured: PEX12 mRNA; conditions = 1 µM, 6 h; scale = relative to: untreated cells; quantity = log2 fold change; result = 1.42
Compound = Cc1ncsc1-c1ccc(C(C)NC(=O)C2CC(O)CN2C(=O)C(NC(=O)CCCCCCCCCCN2CCCC(Nc3ncc(Cl)c(Nc4ccccc4S(=O)(=O)C(C)C)n3)C2)C(C)(C)C)cc1 (stereo not shown); tested on = 22Rv1; test = RNA-seq, measured: PRR14L mRNA; conditions = concentration not given; scale = relative to: DMSO; quantity = log2 fold change; result = -1.79
Compound = Cn1ncc2cc(-c3cncc(Cl)c3N3CCC4(CCNC4=O)CC3)ccc21; tested on = LS174T; test = gene expression, microarray, measured: DIO2 mRNA; conditions = concentration not given, 4 h; scale = relative to: untreated cells; quantity = log2 fold change; result = -1.49
Compound = COC1CN([C@H]2CC[C@H]([C@@]3(C)Oc4c(Cl)cc(C(=O)NCc5c(SC)cc(C)[nH]c5=O)c(C)c4O3)CC2)C1; test = RNA-seq, measured: PHF13 mouse homolog; system = mouse, HT-1376 xenograft, whole blood; conditions = dose not given; scale = relative to: vehicle; quantity = log2 fold change; result = 0.231
Compound = C=CC(=O)Nc1cccc(Cn2ncc3cnc(Nc4cnn(CCOC)c4)nc32)c1; tested on = MLK1 human; test = binding, KINOMEscan; conditions = 100 nM; scale = lower = stronger binding; quantity = percent of control; result = 51%
Compound = O=C(NCc1ccc(OC(F)(F)F)cc1)[C@H]1CCCN(c2ncnc3[nH]c(-c4ccccc4)cc23)C1; tested on = NCI-H2228; test = cell growth or viability, MTT; conditions = 0.008 µg/mL, 72 h; quantity = inhibition; result = 1.76%
Compound = CNS(=O)(=O)Nc1nccc(Cc2c(C)c3ccc(Oc4ncccc4F)cc3oc2=O)c1F; tested on = CAKI-2; test = cell viability; conditions = 7 days; quantity = IC50; result = > 1000 nM
Compound = O=C(NCc1ccc(OC(F)(F)F)cc1)[C@H]1CCCN(c2ncnc3[nH]c(-c4cccnc4)cc23)C1; tested on = NCI-H2228; test = cell growth or viability, MTT; conditions = 5 µg/mL, 72 h; quantity = inhibition; result = 83.4%
Compound = Nc1ncc(-c2cc(-c3cnn(CC(F)(F)F)c3)ncc2F)nc1C(=O)NC1CNCC(F)C1 (stereo not shown); tested on = MEK1; test = KINOMEscan competition binding; conditions = 1 µM; scale = relative to: DMSO control; quantity = remaining binding; result = 65%

For quick reference, copied from above:
Compound = O=C(NCc1ccc(OC(F)(F)F)cc1)[C@H]1CCCN(c2ncnc3[nH]c(-c4ccccc4)cc23)C1; tested on = NCI-H2228; test = cell growth or viability, MTT; conditions = 0.008 µg/mL, 72 h; quantity = inhibition; result = 1.76%
